Measurements of several laboratories.
Parts stem from different laboratories: compare values within a part only.

Block 1 — method: RNA Bind-n-Seq; form: RNA; sample: in vitro; tested at: 365 nM; relative to: no-protein control; direction: higher = stronger binding
Target: RNA binding protein fox-1 homolog 2, RRM domain, GST-SBP tag (RBFOX2, Homo sapiens, UniProt O43251-10, residues 100-194)
Setting: natural RNA segment, single round, ends assumed
Shared flanks, not repeated: GGGAGUUCUACAGUCCGACGAUC … UGGAAUUCUCGGGUGCCAA
Target sequence (chain): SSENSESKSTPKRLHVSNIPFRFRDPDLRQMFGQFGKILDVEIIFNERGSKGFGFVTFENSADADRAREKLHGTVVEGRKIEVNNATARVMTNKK
Oligonucleotide	RBNS enrichment (R)
CCCAGUGUCACUAGAUGUCACACACAUUUGUGGUGCUUUGAUGUUUGCAAGUCUAACCUCUGAACAUAAAUUUGGUCAAAUAAUUGGAACAAAGGGAAACAGAUACUUGA	0.303
GGUUUGUCCCAGCUGAAGUGAAGCAAGAGAGUUUGAAUUAAUUUUUCCAUUAUAAUGUUUUCGCAUGUCUGCCUCUAAAACUGUGAUUUUCAAGCUUUAGCGUGCAUCAG	8.02
CAGACUGAUUUCACCUAGAUUGUCACGGUUUCCUUCAUGUUAACUUUGCGUGACUUUGUUCUUCCUUUACUACUCUGUAUGUAAUAUAUAUACAUAUAUACGUACAUAUG	0.209
ACAAGAUUGAUUUGUAAAACCCUUGAAAUGUAGAUUUCUUGUAGAUGUAUCUUCACGUUGUAAAUAUGUUUUGUAGAGUGAAGCCAUGGGAAGCCAUGUGUAACAGAGCU	0.39
AUGGGACUUUAAAAGUAAUUGAGGAGAAAGAACCGUGAUGUUCCCUGUUUCUCCAGUAAAGGACUGGCUUUUGCUUGGGCAGAGGUGGUGCUGCUGGGUGUGCAGCUGCC	0.94
UUUGGGAAAAAGUACCAGCAAUGAUGUCGAUGUUAAUAAUACUUCAUAAUUGAUAUCUUAUAGCUUUCAAGUAAAGUGUUUUCUAUAACUCAGAUAAUUAAUUUGAAGCA	0.325
GGCUGGGUUGACAGAGUGGUCUGCCUGUUUGUUGUCUGUGCUCAGCUUGCAGAAGCUGCCAGCUGUGCUCACACCACCACCUGGGACAACCACUCGUUGGUCAAGUUCAG	0.399
CUGAGUCCAUGCACCUGCCCCAGGAGGGGGCCAUUGUCCUAGGGACCGCCUAUCACGCCGACUGCUUCCCGAGGCCCCGGGUGGGCUAAGGGGCUGGGUCUGCUUCACCA	0.333
UCUCAAGAGAGGAAGGACAAAACUGUUACAAGCUGAAAUAUUUGGGGAUUUGUUUGACUUGACUAGGGAACCACAAGUUUUCAUAUAAUGCCUGAUUUAGCCCUGUGCCU	0.837
UGAUUCAACUCUCAAUUUUCUUUAUGCAUCAUGGUAAAGCAUUGCAGCAGUGUUGUUUUGUUUGAAGUGCACACUCUAUGGUACGAGGUGUUUAGUAUACCCAAGCAGAU	0.472
UCUGGUUAUAAUUUUGGUCCAAAUUCUUUAUUCUUCCUUGAGCUAAGCAGAAUAAUGGAAUAUAAUAUGUCUUCAUAAUAUAACAACACUAAUACACUAAUAGUAAGAUU	0.353
AUACGCACCGGGCCAGGACCUGGAGCUGGGCUGCCACUAUGAUAAUGCCGAGCUCACCCUCAAUGUGGCCUUGGGCAAGGUCUUCACAGGGGGCGCCCUGUAUUUUGGGG	0.365

Block 2 — method: universal PBM; form: double-stranded DNA, one strand shown; sample: in vitro; tested at: 600 nM; direction: higher = stronger binding
Target: Sal-like protein 4, full length isoform A (SALL4, Homo sapiens, UniProt Q9UJQ4, residues 1-1053)
Chain of UniProt Q9UJQ4 (whole entry, looked up): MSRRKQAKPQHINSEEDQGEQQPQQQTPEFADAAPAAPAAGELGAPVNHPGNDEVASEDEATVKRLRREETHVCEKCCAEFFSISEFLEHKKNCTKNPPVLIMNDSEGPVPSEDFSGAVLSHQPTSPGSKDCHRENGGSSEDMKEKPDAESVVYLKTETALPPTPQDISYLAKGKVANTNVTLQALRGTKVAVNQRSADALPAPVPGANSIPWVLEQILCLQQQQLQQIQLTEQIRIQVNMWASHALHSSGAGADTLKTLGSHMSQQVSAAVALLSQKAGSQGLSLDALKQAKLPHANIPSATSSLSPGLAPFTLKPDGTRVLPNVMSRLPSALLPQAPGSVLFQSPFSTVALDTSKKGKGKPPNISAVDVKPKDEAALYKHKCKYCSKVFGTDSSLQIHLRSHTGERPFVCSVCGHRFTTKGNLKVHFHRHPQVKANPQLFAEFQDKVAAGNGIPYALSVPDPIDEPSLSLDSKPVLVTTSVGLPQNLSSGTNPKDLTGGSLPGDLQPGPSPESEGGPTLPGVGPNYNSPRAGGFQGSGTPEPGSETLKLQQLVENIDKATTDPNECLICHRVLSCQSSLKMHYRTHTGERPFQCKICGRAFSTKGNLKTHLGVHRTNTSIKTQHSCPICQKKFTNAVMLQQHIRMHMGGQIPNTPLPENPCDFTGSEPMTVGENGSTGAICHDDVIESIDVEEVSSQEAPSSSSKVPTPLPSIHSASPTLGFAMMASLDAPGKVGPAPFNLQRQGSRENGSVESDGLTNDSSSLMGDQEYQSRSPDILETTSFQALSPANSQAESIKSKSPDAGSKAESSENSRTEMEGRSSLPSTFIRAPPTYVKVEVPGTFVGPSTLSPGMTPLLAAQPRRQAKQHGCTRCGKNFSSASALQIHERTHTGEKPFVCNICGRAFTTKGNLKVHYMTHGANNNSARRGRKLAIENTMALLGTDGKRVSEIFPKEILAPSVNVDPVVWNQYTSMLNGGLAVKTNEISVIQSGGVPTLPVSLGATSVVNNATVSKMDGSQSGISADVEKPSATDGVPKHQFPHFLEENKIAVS
Setting: 8-mer, flanks averaged, mean of replicates
Oligonucleotide	E-score
AGTCATTA	0.153
ACTGCCGA	-0.178
AAACGTAT	0.222
AAACTTGG	0.046
GAACTGAA	0.1
CTCTCCAC	-0.0578
ACCATTGA	0.103
AGACCCAA	-0.124
TACAGCGA	-0.0447
AGTCATTG	0.0264
CATTCAGA	0.0401
CCCCCTTA	-0.187
GTTAGAGA	0.0153
AGCATTAC	-0.0127
AAGCAAGA	0.139
TACGTTGA	0.192
CCTGAACG	-0.1
ACAGACGA	-0.0925
CTCCCATA	0.0661
CACACGAG	-0.257

Block 3 — method: aptamer microarray, sandwich; form: DNA with 2'F-ANA; sample: in vitro; tested at: 200 nM; together with: Cy3 exosite-II aptamer, 400 nM; direction: higher = stronger binding; oligonucleotide: GGTTGGTGTGGTTGG
Target: Prothrombin, mature alpha-thrombin (F2, Homo sapiens, UniProt P00734)
Setting: whole 15-mer aptamer, many near background
Modification	mean fluorescence intensity
2'F-ANA at 3 6 7 11 12 14 15	611 a.u.
2'F-ANA at 1 2 3 4 6 9 12 15	275 a.u.
2'F-ANA at 1 2 3 9 12 15	433 a.u.
2'F-ANA at 2 3 4 5 6 8 10 11	64.9 a.u.
2'F-ANA at 4 6 8 9 12 13 14 15	85.1 a.u.
2'F-ANA at 1 7 11 12 13 14	68.5 a.u.
2'F-ANA at 1 3 4 5 6 9 12 14	46.7 a.u.
2'F-ANA at 1 3 4 7 8 10 11 15	59.7 a.u.
2'F-ANA at 2 3 5 6 10 11 12 13 15	55.2 a.u.
2'F-ANA at 3 4 5 6 8 9 10 12 14 15	57.5 a.u.
2'F-ANA at 3 6 8 9 13	821 a.u.
2'F-ANA at 1 2 4 5 6 8 11 13 14	49.3 a.u.
2'F-ANA at 4 5 6 8 10 12 13 15	48.7 a.u.
2'F-ANA at 1 6 7 11 13 14	51.6 a.u.
2'F-ANA at 2 3 6 7 8 12 14 15	491 a.u.
2'F-ANA at 1 2 3 5 8 9 10 11 12 13	49.7 a.u.
2'F-ANA at 6 9 10 12 15	176 a.u.
2'F-ANA at 1 2 3 4 6 7 8 9 10 11 15	194 a.u.
2'F-ANA at 2 3 4 6 7 8 9 14	238 a.u.

Block 4 — method: protein-binding microarray; form: double-stranded DNA, one strand shown; sample: in vitro; tested at: 2540 nM top; setting: 60-bp whole probe; together with: salmon DNA 0.4 mg/ml; relative to: random background probes; direction: higher = stronger binding; shared flanks, not repeated: GCCTAGCAC … GTCTTGATTCGCTTGACGCTGCTG
Target: Interferon regulatory factor 3, full length, phosphomimetic (IRF3, Homo sapiens, UniProt Q14653, residues 1-427, S386D/S396D/S398D/S402D/T404D/S405D)
Chain of UniProt Q14653 (whole entry, unmodified, looked up): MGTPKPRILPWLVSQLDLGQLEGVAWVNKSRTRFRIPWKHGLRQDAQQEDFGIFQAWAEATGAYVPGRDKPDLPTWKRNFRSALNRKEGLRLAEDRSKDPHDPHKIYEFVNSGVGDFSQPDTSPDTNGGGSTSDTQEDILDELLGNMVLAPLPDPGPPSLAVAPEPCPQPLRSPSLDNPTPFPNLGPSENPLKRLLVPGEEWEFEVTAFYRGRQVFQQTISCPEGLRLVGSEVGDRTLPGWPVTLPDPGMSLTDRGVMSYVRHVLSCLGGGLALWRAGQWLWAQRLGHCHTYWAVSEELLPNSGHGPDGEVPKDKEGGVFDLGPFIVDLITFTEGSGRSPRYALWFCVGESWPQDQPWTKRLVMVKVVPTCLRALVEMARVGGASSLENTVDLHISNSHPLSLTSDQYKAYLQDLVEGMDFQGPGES
Oligonucleotide	fitted relative affinity
GACGAACTGAGTTTCGAGCCGTGCTAG	0.352 z-score
GTAGAAAATTCATGTTATAAGTGCTAG	-0.0552 z-score
TCACATATAATTTTGTCACTGTGCTAG	0.457 z-score
TTAGGATTGGGTCTCGGTTAGTGCTAG	-0.127 z-score
CTTGCTTTCCTACTGAAATAGTGCTAG	2.85 z-score
GACGGTATCCTACTGCTGTCGTGCTAG	2.99 z-score
GACGGTTTCGATATCGGGACGTGCTAG	6.44 z-score
TTAGGAATGCTTTTCCTTTAGTGCTAG	1.25 z-score
TTAGGACTGAGTCTCGGTTAGTGCTAG	-0.405 z-score
GACGGTCTCGGTCTCTGGACGTGCTAG	1.11 z-score
TCATACCTGTATATCTTACTGTGCTAG	0.428 z-score
GATGGTATCGACACTGGGGACGTGCTA	0.185 z-score
GTGAAATAAGGGAGGCCTAGGTGCTAG	-0.828 z-score
TTAGGTATCGACTATCTGTTAGTGCTA	0.283 z-score
TTAGGTTACGGTATCGGTTAGTGCTAG	2.77 z-score
TTAGGTCTCCTTTTCCTTCAGTGCTAG	5.15 z-score
GACGGTTTCGACGTTCGGGACGTGCTA	2.29 z-score
GCCGGACTGGGGACTGGGGACGTGCTA	-0.636 z-score
TTCGGTCTCGGTTTCGGTTAGTGCTAG	5.72 z-score
CTAGGTTTCGGGTATCGGTTAGTGCTA	4.43 z-score

Block 5 — method: protein binding microarray; form: double-stranded DNA, one strand shown; sample: in vitro; tested at: not given; relative to: not given; direction: higher = stronger binding
Target: Histone acetyltransferase KAT6A, winged helix 2, GST fusion (KAT6A, Homo sapiens, UniProt Q92794, residues 85-181)
Setting: 8-mer, flanks averaged, mean of 2 arrays, mostly near background
Target sequence (chain): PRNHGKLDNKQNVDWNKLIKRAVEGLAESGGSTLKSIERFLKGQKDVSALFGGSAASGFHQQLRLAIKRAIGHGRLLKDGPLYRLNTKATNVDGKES
Oligonucleotide	E-score
CCCCGCAG	0.266
TGCCCGAA	0.0792
AAACAACG	-0.125
CTGCATTC	0.0273
ATTTCAGG	0.0779
ATCACGGG	-0.139
CCGCGGCG	0.205
CCCTAGTC	-0.287
CTGCCAAC	-0.054
ACAAGTAT	-0.202
CTTCGGGC	0.103
CGTTTGCA	0.102
AACATTCG	-0.109
GCACGAGC	0.0129
GAATTGGA	-0.0401
CTTTCGAC	-0.00679

Block 6 — method: competition protein-binding microarray; form: double-stranded DNA, one strand shown; sample: in vitro; tested at: 2 µM; together with: Cbf1 competitor, 0.05 µM; direction: higher = stronger binding; shared flanks, not repeated: … GTCTTGATTCGCTTGACGCTGCTG
Target: Phosphate system positive regulatory protein PHO4, full length, GST-tagged (PHO4, Saccharomyces cerevisiae, UniProt P07270, residues 1-312)
Setting: whole 60-bp probe, lowest competitor level
Residues (chain): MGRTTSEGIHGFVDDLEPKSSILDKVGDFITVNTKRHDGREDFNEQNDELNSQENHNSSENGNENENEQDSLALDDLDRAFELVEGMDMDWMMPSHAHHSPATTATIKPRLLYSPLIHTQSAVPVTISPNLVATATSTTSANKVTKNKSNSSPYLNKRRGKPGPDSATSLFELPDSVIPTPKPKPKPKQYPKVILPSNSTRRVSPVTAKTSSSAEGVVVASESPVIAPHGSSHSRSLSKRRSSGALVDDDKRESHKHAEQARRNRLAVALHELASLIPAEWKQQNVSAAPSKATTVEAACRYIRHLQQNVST
Oligonucleotide	fluorescence intensity [a.u.]
CTATTTTTATGAATTCCGCGGGATTCCTCTATATCT	3780
AAATTACTAAGTTGGATTGTGGGTGACGCCGTATGA	4110
CGTCCTAGTGATTTTCACGTGCAATCCATGAGGAAG	14500
GCTTAAGGGCTCGACCACGTGCGATTCGCTGCTCAA	15300
CGTCCTAGTGATTGCGTGGTGGGTGCCATGAGGAAG	9180
AATTGTGCCAAAAATCACCTGTTATGGCTGACTTGA	3600
AAGTTCATATCCTAAAACGTGTTGACAACACTTCGG	13000
CGGGGTTAAGTTTGGGAAGTGGGTGGCTTGCAGCAG	4780
TGCGCAACAACTTGTCACTAGACTTTATGTCTAGAA	2880
GATAGGTGATGTTGTCATGCCTGAGTATGTGTATGA	6090
CATACCCAACCTTGTCTGGTGGGTGAAGATATTTGT	3510
CAGCTGGTCTCCCAGCACGTGGCCTGGAGCCCAGCC	15700
AAACTTTCTGTGGAAATCGTGCCGATTAAACCATTA	8100
TTGAGTAACTTTGGGCAGGTGACAGGTAAACCCCTT	4260
CTACAGACTTAGCACCACATGGGCACCACCAAGGTT	11500
CTCAATTATGGCCTCCACGTGCGGACGGGCGGCTAG	16100
GTCTTGTCTCATTGTCTTGTGGGTGTCCCCACTTCA	4500

Excerpt of the above (block 2):
Oligonucleotide	E-score
AGTCATTG	0.0264
CTCCCATA	0.0661
TACGTTGA	0.192
AAACGTAT	0.222
AGCATTAC	-0.0127
CATTCAGA	0.0401
TACAGCGA	-0.0447
CCCCCTTA	-0.187
AAGCAAGA	0.139
ACTGCCGA	-0.178
ACAGACGA	-0.0925
CTCTCCAC	-0.0578
GTTAGAGA	0.0153
GAACTGAA	0.1
AGTCATTA	0.153
